Measurements gathered from unrelated publications.
Protocols differ between the studies behind these lines. ± gives the spread as reported.
Chain of UniProt Q86Z02 (whole entry, looked up): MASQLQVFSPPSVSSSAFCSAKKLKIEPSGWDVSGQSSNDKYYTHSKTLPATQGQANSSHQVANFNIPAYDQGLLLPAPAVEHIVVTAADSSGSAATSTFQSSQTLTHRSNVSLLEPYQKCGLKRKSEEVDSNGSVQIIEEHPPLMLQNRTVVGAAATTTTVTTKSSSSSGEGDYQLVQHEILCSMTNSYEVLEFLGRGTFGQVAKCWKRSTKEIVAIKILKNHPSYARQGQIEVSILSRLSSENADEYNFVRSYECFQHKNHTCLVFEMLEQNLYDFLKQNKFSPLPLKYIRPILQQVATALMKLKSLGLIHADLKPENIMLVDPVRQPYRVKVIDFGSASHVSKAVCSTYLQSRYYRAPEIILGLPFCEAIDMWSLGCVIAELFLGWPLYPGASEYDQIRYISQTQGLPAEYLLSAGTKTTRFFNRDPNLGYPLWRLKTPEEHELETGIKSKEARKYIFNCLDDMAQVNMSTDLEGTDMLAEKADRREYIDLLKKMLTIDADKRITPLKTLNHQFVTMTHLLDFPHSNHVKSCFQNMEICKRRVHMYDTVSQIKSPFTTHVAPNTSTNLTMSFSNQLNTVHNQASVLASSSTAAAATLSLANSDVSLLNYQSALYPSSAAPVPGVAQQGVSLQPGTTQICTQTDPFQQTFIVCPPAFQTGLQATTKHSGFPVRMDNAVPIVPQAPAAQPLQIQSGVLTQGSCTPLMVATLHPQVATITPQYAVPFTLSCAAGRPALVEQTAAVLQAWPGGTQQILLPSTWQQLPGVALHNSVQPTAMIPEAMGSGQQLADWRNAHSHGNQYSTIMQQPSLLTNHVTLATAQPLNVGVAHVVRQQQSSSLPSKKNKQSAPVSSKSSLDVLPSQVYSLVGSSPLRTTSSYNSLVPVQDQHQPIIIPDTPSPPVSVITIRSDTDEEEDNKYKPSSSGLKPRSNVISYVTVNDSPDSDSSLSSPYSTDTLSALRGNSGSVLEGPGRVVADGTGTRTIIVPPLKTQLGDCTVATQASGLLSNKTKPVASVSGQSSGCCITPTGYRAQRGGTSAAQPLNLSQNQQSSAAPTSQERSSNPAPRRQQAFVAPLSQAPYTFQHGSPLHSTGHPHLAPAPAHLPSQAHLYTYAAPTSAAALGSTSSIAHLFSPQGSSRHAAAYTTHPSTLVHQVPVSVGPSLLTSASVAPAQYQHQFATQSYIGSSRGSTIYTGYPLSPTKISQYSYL

C1=[N+]2CCCC[N+]3=Cc4ccc5[n]4[Au-]23[n]2c1ccc2-c1nc2ccccc2nc1-5.F[P-](F)(F)(F)(F)F
IC50 (BT-549; NCI60 five-dose screen): 3.5 µM

O=C1CCC(N2C(=O)c3ccc(N4CCC(C(=O)N5CCC(CCN6CCC(CNC(=O)c7cccc(-c8noc(C(F)(F)F)n8)c7)(c7nc(-c8ccccc8)cs7)CC6)CC5)CC4)cc3C2=O)C(=O)N1 (stereo not shown)
IC50 (JeKo-1; cell growth or viability; 7 days): 0.243 µM

C=CCOc1c(C)c(OC)c(C(=O)/C=C/c2ccccc2)c(OCC=C)c1C
IC50 (FaDu; cell growth or viability, SRB; 72 h): > 50 µM

CCOc1cncc(-c2ccc(NC(=O)C3(c4ccnc(NS(=O)(=O)C5CC5)n4)CCOCC3)nc2)n1
IC50 (FaDu; cell proliferation, CellTiter-Glo; 72 h): 10 µM

CN1CCCNC(=O)c2cccc(c2)C(=O)NCCCN(C)CCCNc2cccc3c2C(=O)c2cccc(c2C3=O)NCCC1
log2 fold change (SAS; RNA-Seq, measured: RBM6 mRNA; 1 µM, 6 h; baseline: untreated cells): 0.49

COC1CN([C@H]2CC[C@H]([C@@]3(C)Oc4c(Cl)cc(C(=O)NCc5c(SC)cc(C)[nH]c5=O)c(C)c4O3)CC2)C1
log2 fold change (RNA-seq, measured: GYG1; human, whole blood; dose not given, 24 h; baseline: pretreatment baseline): 1.04

O=C(O)C(CO)NCc1cc(Cl)c(OCc2cccc(-c3ccccc3)c2Br)cc1OCc1cccnc1 (stereo not shown)
IC50 (HK-2; cell growth or viability, MTT): > 10 µM

CC(C)OCCOCc1ccc(OCC(O)CN(N=O)C(C)C)cc1 (stereo not shown)
revertant fold increase (Salmonella typhimurium; Ames test; TA1537; 50 µg/plate, 30 % hamster S9; baseline: solvent control): 0.8 fold

Cc1nn(-c2cccc(N)c2)c(=O)c2cnc(Nc3ccc(N4CCNCC4)cc3)nc12
IC50 (Homeodomain-interacting protein kinase 1 (HIPK1, Homo sapiens, UniProt Q86Z02); enzyme activity, inhibitor): > 10 µM

CC(=O)NCCOCCOCCOCCNC(=O)c1cc(C(=O)N2CCNCCNCCNCC2)c(O)c(C(=O)N2CCNCCNCCNCC2)c1
IC50 (PK-59; cell growth or viability, MTT; 24 h): > 1000 µM

CC1(C)CC(=O)C2=C(C1)Oc1ccc(Cl)cc1C2c1c(C(=O)O)[nH]c2ccccc12 (stereo not shown)
IC50 (3T3-L1; cell growth or viability, MTT; 72 h): 16.3 mg/L

CCCCCCCCCC(=O)[O][Pt]([Cl])([Cl])[O]C(=O)CCCCCCCCC.N.N
IC50 (A549/DDP cisplatin-resistant; MTT; 48 h, added: survivin siRNA 10 nM transfected 24 h before): 4.74 ± 3.03 µM

CC1(C)CC(=O)C2=C(C1)Oc1ccc3ccccc3c1C2n1nnc2ccccc21 (stereo not shown)
IC50 (3T3-L1; cell growth or viability, MTT; 72 h): 61.4 mg/L

Cc1ncsc1-c1ccc(C(C)NC(=O)C2CC(O)CN2C(=O)C(NC(=O)CCCCCCCCCCN2CCCC(Nc3ncc(Cl)c(Nc4ccccc4S(=O)(=O)C(C)C)n3)C2)C(C)(C)C)cc1 (stereo not shown)
log2 fold change (22Rv1; RNA-seq, measured: MAP3K14 mRNA; concentration not given; baseline: DMSO): -1.14

COc1cc(-c2cc(C(C)=O)n3ccccc23)c(OC)cc1Cn1ccnc1
IC50 (Kasumi 1; cell growth or viability, ATP luminescence): 0.057 µM

CC(C)CC(OC1OC(CO)C(O)C(OC(=O)C=Cc2ccccc2)C1O)(C(=O)OCc1ccc(OC2OC(CO)C(O)C(O)C2O)cc1)C(O)C(=O)OCc1ccc(OC2OC(CO)C(O)C(O)C2O)cc1 (stereo not shown)
IC50 (T47D breast cancer; cell viability, MTT; DMEM with 10% FBS; 48 h): > 200 µM

CN(C)Cc1nc(Nc2ccc(-c3cnc4cc(F)ccn34)c3c2C(=O)NC3)ccc1C1CCOC1 (stereo not shown)
IC50 (human B cells; western blot, measured: BLNK phosphorylation; added: anti-IgM): 0.048 µM

C=CC(=O)Nc1cccc(Cn2ncc3cnc(Nc4cnn(CCOC)c4)nc32)c1
percent of control (ADCK4 human; binding, KINOMEscan; 100 nM; lower = stronger binding): 100%

Nc1ncc(-c2cc(-c3cnn(CC(F)(F)F)c3)ncc2F)nc1C(=O)NC1CNCC(F)C1 (stereo not shown)
remaining binding (HCK; KINOMEscan; 1 µM; baseline: DMSO control): 80%

CC(C)c1ccc(N(C)c2ccc3c(c2)OCC[C@H]3CNc2cnccc2C(=O)O)cc1
IC50 (KYSE-410; cell growth or viability, ATP luminescence; 7 days): 0.00825 µM

Cn1ncc(-c2ccc3c(=O)[nH]nc(CN)c3c2)c1-c1c(F)c(Cl)cc(OC2CC2)c1C#N
IC50 (HCC2279; cell viability; 120 h, relative IC50): 0.04 µM

CNS(=O)(=O)Nc1nccc(Cc2c(C)c3ccc(Oc4ncccc4F)cc3oc2=O)c1F
IC50 (KNS-81; cell viability, CellTiter-Glo; 7 days): > 1 µM
